Measurements of several laboratories.
Lines come from different studies, so protocols differ.
Chain of UniProt Q92731 (whole entry, looked up): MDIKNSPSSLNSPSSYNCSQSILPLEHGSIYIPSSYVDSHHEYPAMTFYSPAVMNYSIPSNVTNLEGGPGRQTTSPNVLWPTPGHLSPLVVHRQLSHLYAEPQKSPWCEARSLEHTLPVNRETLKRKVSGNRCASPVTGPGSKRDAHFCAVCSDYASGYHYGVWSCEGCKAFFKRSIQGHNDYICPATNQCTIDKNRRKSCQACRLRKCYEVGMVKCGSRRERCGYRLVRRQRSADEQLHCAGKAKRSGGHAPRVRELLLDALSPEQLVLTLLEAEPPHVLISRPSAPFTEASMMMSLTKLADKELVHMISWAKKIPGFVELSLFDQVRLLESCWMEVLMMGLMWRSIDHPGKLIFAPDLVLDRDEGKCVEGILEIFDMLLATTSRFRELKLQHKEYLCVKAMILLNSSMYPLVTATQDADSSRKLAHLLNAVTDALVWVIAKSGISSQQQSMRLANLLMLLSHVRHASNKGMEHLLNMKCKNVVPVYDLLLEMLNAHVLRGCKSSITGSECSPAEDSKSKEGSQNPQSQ

Compound	tested on	assay	test system	setting	scale	endpoint	result
CCCCC1=NC2(CCCC2)C(=O)N1Cc1ccc(-c2ccccc2S(=O)(=O)Nc2noc(C)c2C)c(COCC)c1	–	–	healthy adult volunteers, plasma	oral, 100 mg, 14 days repeated dosing, fasted, crushed tablet	–	Tmax	4.5 h
O=C(O)CCC(=O)O.[2H]C([2H])([2H])Oc1cc(C)c2[nH]ccc2c1CN1CC[C@@H](C2CC2)C[C@H]1c1ccc(C(=O)O)cc1	–	–	human, plasma	300 mg once daily, day 10, multiple ascending dose, median	–	Tmax	3 h
O=C(O)C[C@H](O)C[C@H](O)/C=C/c1c(C2CC2)nc2ccccc2c1-c1ccc(F)cc1	–	–	FVB wild-type mouse, plasma	oral, 5 mg/kg	–	Tmax	0.8 h
CCOc1c([C@H](C)n2nc(C)c3c(N)ncnc32)cc(Cl)c(F)c1[C@@H]1CNC(=O)C1	–	–	patients with DLBCL, plasma	oral, 30 mg, day 15, monotherapy	–	Tmax	0.5 h
CCOC(=O)C1=C[C@]2(CC)CCCN3CCc4c(n1c1ccccc41)[C@@H]32	Nedd8-cullin1 interaction	neddylation, AlphaScreen	–	100 µM	–	inhibition	-4.2%
NC1(C(=O)N[C@@H](CCO)c2ccc(Cl)cc2)CCN(c2nc[nH]c3nccc2-3)CC1	–	LC-MS/MS, non-compartmental	human patients, plasma	160/400 mg cohort, cycle 2, geometric mean, with: enzalutamide	–	Tmax	2 h
Cl.[2H]C([2H])([2H])CC(=O)c1cnc(NC(=O)C2CC2)cc1Nc1cccc(-c2ncn(C([2H])([2H])[2H])n2)c1OC	–	–	human, fasted, multiple dose	oral, 10 mg once daily, tablet, day 1, median	–	Tmax	2.02 h
CC1CC(OC(=O)C(O)c2ccccc2)CC(C)(C)C1 (stereo not shown)	Nedd8-cullin1 interaction	neddylation, AlphaScreen	–	100 µM	–	inhibition	-6.3%
CCn1cc(C(=O)N2CCOCC2)c(=O)c2cc(NC3Cc4ccccc4C3)cnc21	–	–	human, fasted	oral suspension, 5 mg single dose, median	–	Tmax	1 h
CN1C(=O)[C@@H](NC(=O)c2nnc(Cc3ccccc3)[nH]2)COc2cccnc21	–	–	healthy human, fasted, plasma	oral, 200 mg single dose, median	–	Tmax	3.52 h
C=CCn1c(=O)c2cnc(Nc3ccc(N4CCN(C)CC4)cc3)nc2n1-c1cccc(C(C)(C)O)n1	–	–	human	oral, 300 mg once daily, cycle 1 day 17, with: durvalumab 1500 mg IV	median	Tmax	3 h
CN1CCC[C@H](CN2c3ccccc3Sc3ccccc32)C1.Cl	–	–	fasted female ICR mouse, lymph node	oral, 16 mg/kg	–	Tmax	1 h
O=C1C[C@@H](c2ccc(O)cc2)Oc2cc(O)cc(O)c21	Estrogen receptor beta (ESR2, Homo sapiens, UniProt Q92731)	array formation, agonist	GFP-ERβ PRL-HeLa	1 h	–	EC50	870 nM

Some of these lines once more:
Compound	tested on	assay	test system	setting	scale	endpoint	result
NC1(C(=O)N[C@@H](CCO)c2ccc(Cl)cc2)CCN(c2nc[nH]c3nccc2-3)CC1	–	LC-MS/MS, non-compartmental	human patients, plasma	160/400 mg cohort, cycle 2, geometric mean, with: enzalutamide	–	Tmax	2 h
Cl.[2H]C([2H])([2H])CC(=O)c1cnc(NC(=O)C2CC2)cc1Nc1cccc(-c2ncn(C([2H])([2H])[2H])n2)c1OC	–	–	human, fasted, multiple dose	oral, 10 mg once daily, tablet, day 1, median	–	Tmax	2.02 h
